# Results from different studies.
# Protocols differ between the studies behind these lines.
# Organism: Klebsiella pneumoniae
Structure (SMILES),test,test system,conditions,MIC
CC[C@H](C)[C@H](NC(=O)[C@H](CCCCN)NC(=O)[C@H](CCCCN)NC(=O)[C@H](Cc1ccccc1)NC(=O)[C@H](Cc1ccccc1)NC(=O)[C@H](CCCCN)NC(=O)[C@H](CCCCN)NC(=O)[C@H](Cc1ccccc1)NC(=O)[C@H](CCCNC(=N)N)NC(=O)[C@@H](N)CCCCN)C(=O)N[C@@H](CCCCN)C(=O)N[C@@H](CCCCN)C(=O)N[C@@H](CO)C(=O)N[C@H](C(=O)N[C@@H](CCCCN)C(=O)N[C@@H](CCCCN)C(=O)N[C@@H](CCCNC(=N)N)C(=O)N[C@H](C(=O)N[C@@H](CCCCN)C(=O)N[C@@H](CCCCN)C(=O)N[C@@H](CC(C)C)C(=O)N[C@@H](Cc1ccccc1)C(=O)N[C@@H](CCCCN)C(=O)N[C@@H](CCCCN)C(=O)N1CCC[C@H]1C(=O)N[C@@H](CCCNC(=N)N)C(=O)N[C@H](C(=O)N[C@H](C(=O)N1CCC[C@H]1C(=O)N[C@H](C(=O)N[C@@H](CO)C(=O)N[C@H](C(=O)N1CCC[C@H]1C(=O)N[C@@H](Cc1ccccc1)C(=O)O)[C@@H](C)CC)[C@@H](C)CC)[C@@H](C)CC)C(C)C)C(C)C)C(C)C,CLSI agar dilution,ATCC 13883,"20 h, 37 °C",16 µg/mL
CC1(C)[C@H](NC(=O)/C(=N\OCC(=O)N2CCC(C(=O)O)CC2)c2csc(N)n2)C(=O)N1OS(=O)(=O)O,agar dilution,"09-20, NDM-1",,8 µg/mL
COc1ccc2ccc(O)c(/C=N/[C@H]3CCCC[C@H]3/N=C/c3ccc(C)cc3O)c2c1,"bacterial growth, broth microdilution",carbapenem-resistant clinical isolate,,> 40 µM
CCCCCCCC(=O)N[C@@H](CCN)C(=O)N[C@H](C(=O)N[C@@H](CCN)C(=O)N[C@H]1CCNC(=O)[C@H]([C@@H](C)O)NC(=O)[C@H](CCN)NC(=O)[C@H](CCN)NC(=O)[C@H](CCc2ccccc2)NC(=O)[C@@H](CC(C)C)NC(=O)[C@H](CCN)NC1=O)[C@@H](C)O,broth microdilution,ATCC 19606,,< 0.125 µg/mL
CC(C)C[C@H](NC(=O)[C@@H](NC(=O)[C@H](CCCNC(=N)N)NC(=O)[C@H](CCC(N)=O)NC(=O)[C@H](Cc1ccccc1)NC(=O)[C@H](Cc1ccc(O)cc1)NC(=O)[C@H](CC(N)=O)NC(=O)[C@H](Cc1c[nH]c2ccccc12)NC(=O)[C@@H](NC(=O)[C@H](CCCNC(=N)N)NC(=O)[C@H](CCCCN)NC(=O)[C@@H](N)Cc1ccccc1)C(C)C)C(C)C)C(=O)N[C@H](C(=O)N[C@@H](CCCCN)C(=O)N[C@@H](CCCCN)C(=O)N[C@@H](Cc1ccc(O)cc1)C(N)=O)C(C)C,broth dilution,ATCC 700603,,12.5 µM
CC1(C)[C@H](NC(=O)/C(=N\OCc2c(Cl)cccc2Cl)c2csc(N)n2)C(=O)N1OS(=O)(=O)O,agar dilution,"2146, NDM-1",,64 µg/mL
CC(=O)N[C@H](Cc1cccc(F)c1)C(=O)N[C@@H](CCN)C(=O)N[C@H](C(=O)N[C@@H](CCN)C(=O)N[C@H]1CCNC(=O)[C@H]([C@@H](C)O)NC(=O)[C@H](CCN)NC(=O)[C@H](CCN)NC(=O)[C@H](CC(C)C)NC(=O)[C@@H](Cc2ccccc2)NC(=O)[C@H](CCN)NC1=O)[C@@H](C)O,broth microdilution,"ATCC 13883, colistin-susceptible",,> 64 µg/mL
CC[C@H](C)[C@H](NC(=O)[C@H](C)NC(=O)[C@@H](NC(=O)[C@H](CC(=O)O)NC(=O)[C@H](CCCCN)NC(=O)[C@H](CO)NC(=O)[C@@H](NC(=O)[C@H](CC(N)=O)NC(=O)[C@H](C)NC(=O)[C@@H](NC(=O)[C@H](CCC(=O)O)NC(=O)[C@H](CCCCN)NC(=O)[C@@H](NC(=O)[C@@H](NC(=O)[C@H](Cc1c[nH]cn1)NC(=O)[C@H](CCCCN)NC(=O)[C@@H](NC(=O)[C@H](CCCCN)NC(=O)[C@H](CCCCN)NC(=O)[C@@H](NC(=O)[C@H](CC(C)C)NC(=O)[C@H](CCCCN)NC(=O)[C@H](CC(N)=O)NC(=O)[C@H](Cc1ccccc1)NC(=O)[C@H](CCCNC(=N)N)NC(=O)[C@H](CCCCN)NC(=O)[C@H](CCCNC(=N)N)NC(=O)[C@H](Cc1ccccc1)NC(=O)CN)C(C)C)C(C)C)[C@@H](C)O)[C@@H](C)CC)[C@@H](C)O)C(C)C)C(C)C)C(=O)N[C@H](C(=O)N[C@@H](C)C(=O)NCC(=O)N[C@@H](CO)C(=O)NCC(=O)N[C@H](C(=O)N[C@@H](C)C(=O)N[C@H](C(=O)NCC(=O)N[C@@H](C)C(=O)N[C@@H](C)C(=O)N[C@@H](CCSC)C(N)=O)C(C)C)C(C)C)C(C)C,,"DSM 30104, CAMHB with 10% mouse serum",150 mM NaCl,1 µg/mL
CC[C@H](C)[C@H](NC(=O)[C@@H](CCCNC(=N)N)NC(=O)[C@H](CCCNC(=N)N)NC(=O)[C@@H](NC(=O)[C@H](Cc1c[nH]c2ccccc12)NC(=O)[C@H](CCCNC(=N)N)NC(=O)[C@@H]1CCCN1C(=O)[C@H](CCCNC(=N)N)NC(=O)[C@@H]1CCCN1C(=O)[C@H](CC(C)C)NC(=O)[C@H](Cc1ccc(O)cc1)NC(=O)[C@@H]1CCCN1C(=O)[C@@H]1CCCN1C(=O)[C@H](CCCCN)NC(=O)[C@H](CC(=O)O)NC(=O)[C@@H](N)C(C)C)C(C)C)C(=O)N[C@@H](Cc1ccc(O)cc1)C(=O)N[C@@H](CC(N)=O)C(=O)N[C@H](CCCNC(=N)N)C(N)=O,broth microdilution,DSM 681,"18 h, 37 °C, 25% MHB2",4 µg/mL
N=C(N)NCCC[C@@H]1NC(=O)[C@H](CCCNC(=N)N)NC(=O)[C@H](CCCNC(=N)N)NC(=O)[C@@H](CCCNC(=N)N)NC(=O)[C@H](Cc2ccc3ccccc3c2)NC(=O)[C@H](Cc2ccc3ccccc3c2)NC(=O)[C@H](Cc2ccc3ccccc3c2)NC1=O,,"ATCC 700603, ESBL SHV-18",,64 µg/mL

# Some of these lines once more:
Structure (SMILES),test,test system,conditions,MIC
CC[C@H](C)[C@H](NC(=O)[C@H](C)NC(=O)[C@@H](NC(=O)[C@H](CC(=O)O)NC(=O)[C@H](CCCCN)NC(=O)[C@H](CO)NC(=O)[C@@H](NC(=O)[C@H](CC(N)=O)NC(=O)[C@H](C)NC(=O)[C@@H](NC(=O)[C@H](CCC(=O)O)NC(=O)[C@H](CCCCN)NC(=O)[C@@H](NC(=O)[C@@H](NC(=O)[C@H](Cc1c[nH]cn1)NC(=O)[C@H](CCCCN)NC(=O)[C@@H](NC(=O)[C@H](CCCCN)NC(=O)[C@H](CCCCN)NC(=O)[C@@H](NC(=O)[C@H](CC(C)C)NC(=O)[C@H](CCCCN)NC(=O)[C@H](CC(N)=O)NC(=O)[C@H](Cc1ccccc1)NC(=O)[C@H](CCCNC(=N)N)NC(=O)[C@H](CCCCN)NC(=O)[C@H](CCCNC(=N)N)NC(=O)[C@H](Cc1ccccc1)NC(=O)CN)C(C)C)C(C)C)[C@@H](C)O)[C@@H](C)CC)[C@@H](C)O)C(C)C)C(C)C)C(=O)N[C@H](C(=O)N[C@@H](C)C(=O)NCC(=O)N[C@@H](CO)C(=O)NCC(=O)N[C@H](C(=O)N[C@@H](C)C(=O)N[C@H](C(=O)NCC(=O)N[C@@H](C)C(=O)N[C@@H](C)C(=O)N[C@@H](CCSC)C(N)=O)C(C)C)C(C)C)C(C)C,,"DSM 30104, CAMHB with 10% mouse serum",150 mM NaCl,1 µg/mL
